Published values collected from several papers.
Numbered parts are unrelated; each lists some results of a single study. Positions count from the first letter of the parent shown.

Study 1 — technique: competition protein-binding microarray; form: double-stranded DNA, one strand shown; matrix: in vitro; tested at: 2 µM; added: Pho4 competitor, 0.05 µM; reading: higher = stronger binding; endpoint: fluorescence intensity; all sequences stand within: … GTCTTGATTCGCTTGACGCTGCTG
Target: Centromere-binding protein 1, full length, His-tagged (CBF1, Saccharomyces cerevisiae, UniProt P17106, residues 1-351)
Chain of UniProt P17106 (whole entry, looked up): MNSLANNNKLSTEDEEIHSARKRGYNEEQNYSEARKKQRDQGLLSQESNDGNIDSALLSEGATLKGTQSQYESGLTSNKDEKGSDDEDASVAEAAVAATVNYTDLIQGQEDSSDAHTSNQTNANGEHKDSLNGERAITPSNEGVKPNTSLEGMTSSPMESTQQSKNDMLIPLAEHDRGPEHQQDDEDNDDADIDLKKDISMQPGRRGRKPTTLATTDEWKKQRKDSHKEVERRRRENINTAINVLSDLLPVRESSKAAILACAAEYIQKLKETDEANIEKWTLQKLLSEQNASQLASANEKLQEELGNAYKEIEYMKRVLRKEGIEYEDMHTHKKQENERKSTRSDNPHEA
Setting: whole 60-bp probe, lowest competitor level
AAATTACTAAGTTGGCCAGTGGGTGACGCCGTATGA: 62.1 a.u.
AATAAGTTCATCGACCACGCACACTTCACCAAGTTA: 82.8 a.u.
GCCAAGCAGCGTCCGCACGTTGGAACTTTTTCGCCG: 70 a.u.
TAACTAATCAAATGTATCGTGACGGGGTGTTGCATC: 132 a.u.
CATACCCAACCTTGCCTGGTGGGTGAAGATATTTGT: 64.6 a.u.
AAGTGCCGGAGGCTCAGCGTGACGGTGCAGATAGGT: 84.9 a.u.
AAACAATTGGACGGCCACGTGGCCGCTCATGTAAGG: 1360 a.u.
GTTAATGATATGTTTCACGTGGTGAGATTTTTTTTG: 1270 a.u.
GTCCCCAGCGTACAAACCGTGACGGTTACCGAAAGC: 66.5 a.u.
CATACCCAACCTTGTCCCGTGGGTGAAGATATTTGT: 117 a.u.
CTAACGAAGGTTTGAAATGTGGGTGACAAGCCAAGT: 79.4 a.u.
TGCGCAACAACTTGGACGGTGGGTGTATGTCTAGAA: 54.1 a.u.
AGTCTTGTCTGAAACCATGTGGGACACCAAGAAGGA: 78.5 a.u.
AAAGCGGTAATTTACCACGTGTTTTCACATATCTAT: 1810 a.u.
CGGGGTTAAGTTTGGCCTGTGGGTGGCTTGCAGCAG: 53.2 a.u.
ATGCTTTAGTCTGGACTCGTGATGGTTCAACGATTT: 256 a.u.
TAAATGGTCTCTTAATGCGTGCCGAATTTTCGTAAT: 84.9 a.u.
TTATATCCGACGTCCCACGTGTCGGCGAAGCTCGGA: 643 a.u.
CGTCCTAGTGATTGTGAGGTGGGTGCCATGAGGAAG: 80.5 a.u.

Study 2 — technique: RNA Bind-n-Seq; form: RNA; matrix: in vitro; tested at: 365 nM; reference: no-protein control; reading: higher = stronger binding; endpoint: RBNS enrichment (R)
Target: RNA binding protein fox-1 homolog 2, RRM domain, GST-SBP tag (RBFOX2, Homo sapiens, UniProt O43251-10, residues 100-194)
Setting: natural RNA segment, single round, ends assumed
All sequences stand within: GGGAGUUCUACAGUCCGACGAUC … UGGAAUUCUCGGGUGCCAA
Residues (chain): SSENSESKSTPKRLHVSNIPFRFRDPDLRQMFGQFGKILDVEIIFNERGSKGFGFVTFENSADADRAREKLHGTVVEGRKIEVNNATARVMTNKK
CUGGCCUGUCCUCUAAGUCAAGUUUAGGAAAACAAGGAUAAGAUUCUGUCAUAGGCAUAGAGAGUUGCACAUAAAAAAUACCGAAGAAAACCCAAAAUUCAAUCAACAAU: 0.444
AUGACAAGGCAACCACAGAAGUCAGAACAAUCAGGCUUGAGUGGGUGGCCAGGUCAGCUACUGCCCUUCCCAGAAAGCCCUGGAGGUGACCAUAGCCUGUCACCACCCAA: 0.228
CCCCAAAAUUACAUGUUAAUUUCCAUUUAUAUCAGGGAUUCUAUUUACUUGAAGACUGUGAAGUUGCCAUUUUGUCUCAUUGUUUUCUUUGACAUAACUAGGAUCCAUUA: 0.557
AAGAUGAUUAGCCUUCCUUGAAAUAAGUAUUUGUGGAUGGGUGUUAAAUUAAAAUUUCCAGAAUACACUGUCCAUCUCACACACUCUGAAAUCUAAUAUAUGAAGUAGUA: 0.617
ACAGAGCAGCAUCUGAUGCCCUGUGGUGUUUGGCAUGUGCCCCCUGUCUACUGACCAAUCAGUGUGGCAUGAGGCCCACGCCACCCAAACCUUUCACUUUCCAAAGAGCU: 0.199
UACCUGCCUUCCUCAACCUAAGAAGGGUUGUUAAGGCAGACCGCCCUGUUCCCCAGAGUUGUCCCUGUAGUGUCUAGGUUUAUUCUAAUGGUAAAAGUAACUUACUUAAA: 0.415
GAACUGGGUCAGCAGCCCUGUUCUUGCUUCCUCUCUCUUAAGCUAGGCCAGGCUGGCUCCUGGCUGUGAAGGAACUUCCGGUCCCCAAGAAGCCUUGAAGACUGGACAAG: 0.236
UCCCAGUUUGUCCUUUCUUGUCCAUACCUACACACACCUGCAGCGGGGGUCUGGGGAACAUGUGGGCUAUGGCUCUGCUACCCCGUAGGACACACUGGGUCACUGGCAUG: 1.22

Study 3 — target: CCNA2, cyclin fold, Cln2 fusion (human); technique: yeast growth competition, sequencing; matrix: yeast; setting: strong parent motif; reference: not given; reading: higher = stronger binding; endpoint: normalised enrichment score
Parent: PKMYT1 docking peptide (human); SFEPRNLLSLFED; partner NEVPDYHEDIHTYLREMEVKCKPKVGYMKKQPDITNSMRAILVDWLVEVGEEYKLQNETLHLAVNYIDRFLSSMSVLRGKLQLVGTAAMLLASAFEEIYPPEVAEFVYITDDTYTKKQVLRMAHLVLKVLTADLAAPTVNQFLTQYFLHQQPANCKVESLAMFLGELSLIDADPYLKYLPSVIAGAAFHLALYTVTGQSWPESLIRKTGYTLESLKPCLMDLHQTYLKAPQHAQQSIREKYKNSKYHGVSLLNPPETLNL
SFESRNLLSLFED [P4S]: 0.479
SFEPRNLLSLFHD [E12H]: 2.07
SFEMRNLLSLFED [P4M]: -0.643
SFEPRNLLRLFED [S9R]: 2.63
SFEPRNELSLFED [L7E]: -1.36
SFEPRNLLSLFEQ [D13Q]: 2.67
SFEPRNLLSLFEW [D13W]: 1.18
SFEPRNLLSQFED [L10Q]: 2.79
SFEPNNLLSLFED [R5N]: -0.0787
SFEPRNLLSLFND [E12N]: 3.16
SFEPRNPLSLFED [L7P]: -1.58
FFEPRNLLSLFED [S1F]: 3.72
SFEYRNLLSLFED [P4Y]: -1.65
SFEPRNLLSRFED [L10R]: 2.47
SFEPRNLLSLEED [F11E]: -0.812
SFEPRNLLSLVED [F11V]: -0.287
SFEPRNLLSYFED [L10Y]: 2.08

Study 4 — technique: RNAcompete; form: RNA; matrix: in vitro; tested at: 20 nM; setting: 7-mer, probes averaged, single round; reference: mean of 7-mers; reading: higher = stronger binding; endpoint: 7-mer Z-score
Target: PABPC1L2, full length, GST fusion (mouse, UniProt A0ABA7IW68)
Target sequence (chain): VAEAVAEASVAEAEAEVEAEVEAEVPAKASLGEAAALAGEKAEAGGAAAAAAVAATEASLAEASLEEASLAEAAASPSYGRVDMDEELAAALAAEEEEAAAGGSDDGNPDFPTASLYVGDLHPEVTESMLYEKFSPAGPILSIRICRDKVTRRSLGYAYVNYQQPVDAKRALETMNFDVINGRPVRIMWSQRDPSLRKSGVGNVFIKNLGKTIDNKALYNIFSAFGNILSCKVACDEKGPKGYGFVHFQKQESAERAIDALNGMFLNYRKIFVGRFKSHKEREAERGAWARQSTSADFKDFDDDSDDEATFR
GGAGUCA: -0.0681
UAAACUC: 0.14
ACGCAGG: 0.263
GACAGAG: 0.124
GAUGUAC: -0.166
AUAAGAG: 0.138
GAAGCGC: -0.0283
AAAUGAC: 0.932
UCCACCU: -0.333
AUACUUU: -0.0518
GAUCUUA: -0.258
AUAUGAA: 0.115
GAGCUAA: 0.0315
UCGAGUG: -0.15
CCGGCAA: -0.217
GGUGGCU: 0.12
GGCUACU: -0.012
ACUGAGG: 0.102
GAUUAGU: -0.206

For quick reference, copied from above (study 1):
CATACCCAACCTTGTCCCGTGGGTGAAGATATTTGT: 117 a.u.
CTAACGAAGGTTTGAAATGTGGGTGACAAGCCAAGT: 79.4 a.u.
TGCGCAACAACTTGGACGGTGGGTGTATGTCTAGAA: 54.1 a.u.
AGTCTTGTCTGAAACCATGTGGGACACCAAGAAGGA: 78.5 a.u.
AAAGCGGTAATTTACCACGTGTTTTCACATATCTAT: 1810 a.u.
CGGGGTTAAGTTTGGCCTGTGGGTGGCTTGCAGCAG: 53.2 a.u.
